Experimental data collected from several papers.
Compare with care: the assays were run in different laboratories.
Medium: plasma

SMILES	host	route	dose	time	setting	added	AUC(0-inf)
N#Cc1cc(NC(=O)C2c3ccccc3C(=O)N(CC(F)(F)F)C2c2ccc[n+]([O-])c2)ccc1F (stereo not shown)	human	–	600 mg	–	fasted, median	–	41.7 µg·h/mL
CN1CCC[C@]1(C)/C=C/S(=O)(=O)NC(=O)Nc1c2c(cc3c1CC(O)C3)CCC2 (stereo partly shown)	human	oral	50 mg twice daily of parent drug	day 14	metabolite of dosed drug	–	157 µg·h/mL
CN(C(=O)C(C)(C)c1cc(C(F)(F)F)cc(C(F)(F)F)c1)c1cnc(N2C[C@H]3COCCN3C[C@H]2CO)cc1-c1ccc(F)cc1CO	human	oral	120 mg	–	geometric mean	–	1.32 µg·h/mL
CCCCCCCCCCCCCCCC(=O)N[C@@H](CCCCN)C(=O)N[C@@H](CCCCN)C(=O)N[C@@H](CO)C(=O)N[C@@H](CCCNC(=N)N)C(=O)N[C@@H](C)C(=O)N[C@@H](CC(C)C)C(=O)N[C@@H](Cc1ccccc1)C(N)=O	human patients	intravenous	0.5 mg/kg over 2 h	–	–	–	7.44 µg·h/mL
CC1(C)CC[C@]2(NC(=O)C(C)(F)F)CC[C@]3(C)[C@H](C(=O)C=C4[C@@]5(C)C=C(C#N)C(=O)C(C)(C)[C@@H]5CC[C@]43C)[C@@H]2C1	human	oral	dose not given	–	geometric least-squares mean	efavirenz	0.712 µg·h/mL
CC(C)C[C@H](NC(=O)[C@H](CCCN)NC(=O)CNC(=O)[C@@H](NC(=O)[C@H](C)NC(=O)[C@@H]1CSCSC[C@H](NC(=O)CC[C@H](N)C(=O)O)C(=O)N[C@@H](CC(N)=O)C(=O)N[C@@H]([C@@H](C)O)C(=O)N[C@@H](C)C(=O)N[C@@H]([C@@H](C)O)C(=O)N1)[C@@H](C)O)C(=O)N[C@@H](C)C(=O)N[C@@H](CCC(=O)O)C(=O)N[C@@](C)(Cc1ccccc1)C(=O)N[C@@H](CC(C)C)C(=O)N[C@H](C(=O)N[C@@H](CCCNC(=N)N)C(=O)N[C@@H](CO)C(=O)N[C@@H](CO)C(=O)N[C@@H](CC(N)=O)C(=O)N(C)[C@@H](CC(N)=O)C(=O)N[C@@H](Cc1ccccc1)C(=O)NCC(=O)N1CCC[C@H]1C(=O)N[C@@H](CCCCNC(=O)CC[C@H](NC(=O)CC[C@H](NC(=O)CCCCCCCCCCCCCCCCCCC(=O)O)C(=O)O)C(=O)O)C(=O)N[C@@H](CC(C)C)C(=O)N1CCC[C@H]1C(=O)N1CCC[C@H]1C(=O)N[C@H](C(=O)N[C@@H](CCC(=O)O)C(=O)N[C@H](C(=O)NCC(=O)N[C@@H](CO)C(=O)N[C@@H](CC(N)=O)C(=O)N[C@H](C(=O)N[C@@H](Cc1ccc(O)cc1)C(N)=O)[C@@H](C)O)C(C)C)[C@@H](C)O)C(C)C	healthy human	subcutaneous	12 mg	–	–	–	648 µg·h/mL
CN1CCC[C@]1(C)/C=C/S(=O)(=O)NC(=O)Nc1c2c(cc3c1CCC3O)CCC2 (stereo partly shown)	human	oral	100 mg twice daily of parent drug	day 14	metabolite of dosed drug	–	1970 µg·h/mL
Cc1[nH]c(=O)c(CNC(=O)c2cc(Cl)c3c(c2C)O[C@@](C)([C@H]2CC[C@H](N(C)C)CC2)O3)c(C)c1O	human	oral	200 mg	–	single dose, metabolite of valemetostat	[14C]-valemetostat	12.6 µg·h/mL
CN1CCC[C@]1(C)/C=C/S(=O)(=O)NC(=O)Nc1c2c(cc3c1CCC3)CC=C2	human	oral	50 mg twice daily of parent drug	day 14	metabolite of dosed drug	–	747 µg·h/mL
CC[C@H](C)[C@@H]1NC(=O)[C@H](Cc2ccc(O)cc2)NC(=O)CCCSC[C@@H](C(=O)N(CC(=O)N[C@@H](CC(C)C)C(=O)NCC(N)=O)Cc2ccc(F)cc2)NC(=O)[C@H](CC(N)=O)NC(=O)[C@H](CCC(N)=O)NC1=O	human	intranasal	400 µg	–	single dose	–	0.000112 µg·h/mL

Some of these lines once more:
SMILES	host	route	dose	time	setting	added	AUC(0-inf)
CN1CCC[C@]1(C)/C=C/S(=O)(=O)NC(=O)Nc1c2c(cc3c1CCC3)CC=C2	human	oral	50 mg twice daily of parent drug	day 14	metabolite of dosed drug	–	747 µg·h/mL
